Measured values from different studies.
Compare with care: the assays were run in different laboratories. ± gives the spread as reported.
ACTA1: ACTA1, TMR label (Oryctolagus cuniculus, UniProt P68135)
T1: STAG2/RAD21 STAG2 80-1060, RAD21 281-420 (Homo sapiens); chain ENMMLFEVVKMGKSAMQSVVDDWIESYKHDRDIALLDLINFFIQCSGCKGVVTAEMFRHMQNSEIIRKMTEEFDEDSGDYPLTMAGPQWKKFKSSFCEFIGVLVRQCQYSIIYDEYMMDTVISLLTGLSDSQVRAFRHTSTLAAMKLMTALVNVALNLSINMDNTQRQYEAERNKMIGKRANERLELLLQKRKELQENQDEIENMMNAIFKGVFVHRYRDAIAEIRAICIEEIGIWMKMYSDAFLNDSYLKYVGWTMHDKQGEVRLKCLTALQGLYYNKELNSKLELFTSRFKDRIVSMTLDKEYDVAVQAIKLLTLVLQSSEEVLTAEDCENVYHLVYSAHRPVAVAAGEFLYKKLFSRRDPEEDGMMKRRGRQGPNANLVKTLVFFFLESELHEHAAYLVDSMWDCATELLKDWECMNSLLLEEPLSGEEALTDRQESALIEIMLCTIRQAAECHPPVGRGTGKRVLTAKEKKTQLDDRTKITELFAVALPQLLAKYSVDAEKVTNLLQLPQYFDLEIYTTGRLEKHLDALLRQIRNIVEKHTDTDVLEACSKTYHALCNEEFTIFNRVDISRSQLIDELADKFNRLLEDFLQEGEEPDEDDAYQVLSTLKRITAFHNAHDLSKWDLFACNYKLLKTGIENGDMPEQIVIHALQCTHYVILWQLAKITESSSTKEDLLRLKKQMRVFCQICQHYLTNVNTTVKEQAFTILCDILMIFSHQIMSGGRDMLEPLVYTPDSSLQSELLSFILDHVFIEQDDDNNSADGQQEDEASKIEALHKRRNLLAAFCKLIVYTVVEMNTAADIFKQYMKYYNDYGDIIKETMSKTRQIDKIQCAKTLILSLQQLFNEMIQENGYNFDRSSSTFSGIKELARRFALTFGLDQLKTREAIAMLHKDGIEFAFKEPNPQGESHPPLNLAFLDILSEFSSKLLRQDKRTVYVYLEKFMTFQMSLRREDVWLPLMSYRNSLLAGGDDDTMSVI; chain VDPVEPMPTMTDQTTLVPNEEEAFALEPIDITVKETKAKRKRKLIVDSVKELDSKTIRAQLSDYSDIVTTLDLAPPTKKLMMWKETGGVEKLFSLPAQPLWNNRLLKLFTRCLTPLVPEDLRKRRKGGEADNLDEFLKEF
B1: Fmnl3 555-954 R570A (Mus musculus, UniProt Q6ZPF4); chain GLSAIRIKKPIKTKFALPVFNWTALKPNQINGTVFSELDDEKILEDLDLDRFEELFKTKAQGPALDLICSKNKTAQKAASKVTLLEANRAKNLAITLRKAGRSAEEICRAIHTFDLQTLPVDFVECLMRFLPTEAEVKLLRQYERERQPLEELAAEDRFMLLFSKVERLTQRMAGMAFLGNFQDNLQMLTPQLNAIIAASASVKSSQKLKQMLEIILALGNYMNSSKRGAVYGFKLQSLDLLLDTKSTDRKMTLLHFIALTVKEKYPELANFWQELHFVEKAAAVSLENVLLDVKELGRGMELIRRECSIHDNSVLRNFLSTNEGKLDKLQRDAKTAEEAYNAVVRYFGESPKTTPPSVFFPVFVRFIRSYKEAEQENEARKKQEEVMREKQLAQEAKKL
B2: FBN1 115-489 (Homo sapiens, UniProt P35555); chain SIQHCNIRCMNGGSCSDDHCLCQKGYIGTHCGQPVCESGCLNGGRCVAPNRCACTYGFTGPQCERDYRTGPCFTVISNQMCQGQLSGIVCTKTLCCATVGRAWGHPCEMCPAQPHPCRRGFIPNIRTGACQDVDECQAIPGLCQGGNCINTVGSFECKCPAGHKLNEVSQKCEDIDECSTIPGICEGGECTNTVSSYFCKCPPGFYTSPDGTRCIDVRPGYCYTALTNGRCSNQLPQSITKMQCCCDAGRCWSPGVTVAPEMCPIRATEDFNKLCSVPMVIPGRPEYPPPPLGPIPPVLPVPPGFPPGPQIPVPRPPVEYLYPSREPPRVLPVNVTDYCQLVRYLCQNGRCIPTPGSYRCECNKGFQLDLRGECI
B3: RH5 (Plasmodium falciparum, UniProt Q8IFM5); sequence looked up; chain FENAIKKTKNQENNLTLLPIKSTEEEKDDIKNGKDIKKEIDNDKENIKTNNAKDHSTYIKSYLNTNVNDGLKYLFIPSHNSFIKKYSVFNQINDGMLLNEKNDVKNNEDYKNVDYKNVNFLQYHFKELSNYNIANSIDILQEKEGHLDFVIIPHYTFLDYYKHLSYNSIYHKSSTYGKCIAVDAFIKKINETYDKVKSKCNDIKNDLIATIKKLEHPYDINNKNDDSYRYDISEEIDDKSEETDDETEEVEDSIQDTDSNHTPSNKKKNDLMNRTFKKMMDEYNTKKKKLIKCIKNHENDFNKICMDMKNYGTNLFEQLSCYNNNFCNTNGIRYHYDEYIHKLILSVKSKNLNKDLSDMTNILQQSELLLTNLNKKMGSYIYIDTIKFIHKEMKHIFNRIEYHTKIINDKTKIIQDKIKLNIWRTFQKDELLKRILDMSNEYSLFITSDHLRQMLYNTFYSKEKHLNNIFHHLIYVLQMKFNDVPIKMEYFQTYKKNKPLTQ
B4: Fmnl3 555-954 K800A (Mus musculus, UniProt Q6ZPF4); chain GLSAIRIKKPIKTKFRLPVFNWTALKPNQINGTVFSELDDEKILEDLDLDRFEELFKTKAQGPALDLICSKNKTAQKAASKVTLLEANRAKNLAITLRKAGRSAEEICRAIHTFDLQTLPVDFVECLMRFLPTEAEVKLLRQYERERQPLEELAAEDRFMLLFSKVERLTQRMAGMAFLGNFQDNLQMLTPQLNAIIAASASVKSSQKLKQMLEIILALGNYMNSSKRGAVYGFKLQSLDLLLDTASTDRKMTLLHFIALTVKEKYPELANFWQELHFVEKAAAVSLENVLLDVKELGRGMELIRRECSIHDNSVLRNFLSTNEGKLDKLQRDAKTAEEAYNAVVRYFGESPKTTPPSVFFPVFVRFIRSYKEAEQENEARKKQEEVMREKQLAQEAKKL
B5: Fmnl3 555-954 (Mus musculus, UniProt Q6ZPF4); chain GLSAIRIKKPIKTKFRLPVFNWTALKPNQINGTVFSELDDEKILEDLDLDRFEELFKTKAQGPALDLICSKNKTAQKAASKVTLLEANRAKNLAITLRKAGRSAEEICRAIHTFDLQTLPVDFVECLMRFLPTEAEVKLLRQYERERQPLEELAAEDRFMLLFSKVERLTQRMAGMAFLGNFQDNLQMLTPQLNAIIAASASVKSSQKLKQMLEIILALGNYMNSSKRGAVYGFKLQSLDLLLDTKSTDRKMTLLHFIALTVKEKYPELANFWQELHFVEKAAAVSLENVLLDVKELGRGMELIRRECSIHDNSVLRNFLSTNEGKLDKLQRDAKTAEEAYNAVVRYFGESPKTTPPSVFFPVFVRFIRSYKEAEQENEARKKQEEVMREKQLAQEAKKL
B6: HNRNPH1 192-280 (Homo sapiens, UniProt P31943); chain RTHYDPPRKLMAMQRPGPYDRPGAGRGYNSIGRGAGFERMRRGAYGGGYGGYDDYNGYNDGYGFGSDRFGRDLNYCFSGMSDHRYGDGG
B7: TRAP 26-496 (Plasmodium falciparum, UniProt P16893); sequence looked up; chain RDVQNNIVDEIKYSEEVCNDQVDLYLLMDCSGSIRRHNWVNHAVPLAMKLIQQLNLNDNAIHLYVNVFSNNAKEIIRLHSDASKNKEKALIIIRSLLSTNLPYGRTNLTDALLQVRKHLNDRINRENANQLVVILTDGIPDSIQDSLKESRKLSDRGVKIAVFGIGQGINVAFNRFLVGCHPSDGKCNLYADSAWENVKNVIGPFMKAVCVEVEKTASCGVWDEWSPCSVTCGKGTRSRKREILHEGCTSEIQEQCEEERCPPKWEPLDVPDEPEDDQPRPRGDNSSVQKPEENIIDNNPQEPSPNPEEGKDENPNGFDLDENPENPPNPDIPEQKPNIPEDSEKEVPSDVPKNPEDDREENFDIPKKPENKHDNQNNLPNDKSDRNIPYSPLPPKVLDNERKQSDPQSQDNNGNRHVPNSEDRETRPHGRNNENRSYNRKYNDTPKHPEREEHEKPDNNKKKGESDNKYK

B1 (Fmnl3 555-954 R570A)
fraction bound (ACTA1; AUC; KCl 50 mM): 0.98 fraction

CTCF fragment (Homo sapiens) (sequence not shown)
molecule per partner (T1, STAG2/RAD21 STAG2 80-1060, RAD21 281-420 (Homo sapiens); ITC): 0.78

B2 (FBN1 115-489)
binding (FBLN5 42-448 (Homo sapiens, UniProt Q9UBX5); ELISA): binds

B3 (RH5)
relative binding (BSG 22-269 (Homo sapiens, UniProt P35613-2); flow cytometry; human RBCs; together with: RII EBA-175 2 µM; baseline: unstimulated RBCs, higher = more binding): 3.7 fold

B4 (Fmnl3 555-954 K800A)
fraction bound (ACTA1; AUC; KCl 50 mM): 0.88 fraction

Dync1i2 (Mus musculus, UniProt O88487)
DIC2/DHC ratio (Dync1h1 F580Y (Mus musculus, UniProt Q9JHU4); co-sedimentation; brain extract; together with: taxol 20 µM, AMP-PNP 1 mM; baseline: wild type, higher = more dynein bound): 1.2 fold

B5 (Fmnl3 555-954)
fraction bound (ACTA1; AUC; KCl 50 mM): 0.91 fraction

Sambucus nigra agglutinin-I (Sambucus nigra)
surface coverage (KLK3 (Homo sapiens, UniProt P07288); SPR): 10.1 pg·mm^−2

Grm5 mGlu5a, Venus fusion
slow inward current (Grid1 (Mus musculus, UniProt Q61627); DHPG-induced current; HEK; 100 µM, co-transfected): 78 pA

C3b/Bb C3bBb complex (Homo sapiens)
half-life (scn fragment (Staphylococcus aureus); native gel; 20 °C, together with: SCIN 1 µM): < 4 h

cinC (UniProt Q8VQF4)
electron transfer rate (fpr (Escherichia coli, UniProt P28861); absorbance loss; 20 µM, pH 7.8, together with: NADPH 200 µM): 48.1 min⁻¹

B6 (HNRNPH1 192-280)
binding (HNRNPA2B1 181-341 (Homo sapiens, UniProt P22626-2); trapping in hydrogel, hydrogel binding; pH 7.5, 4 °C, NaCl 200 mM): binds

CD24/Siglec-10 blocking peptide, D-amino acids
IC50 (CD274 (Homo sapiens, UniProt Q9NZQ7); competition with ligand, flow cytometry; in cells): 30.2 µM

N-formyl-Met-Leu-Phe, N-formyl
pEC50 (FPR1 (Homo sapiens, UniProt P21462); inhibition of forskolin-stimulated cAMP, agonist; CHO-K1): 10.2 pEC50

B7 (TRAP 26-496)
koff (ITGAV/ITGB3 ectodomain heterodimer 31-992 (Homo sapiens); SPR): 0.00332 ± 2e-05 s⁻¹

RIGI (Homo sapiens, UniProt O95786)
relative binding (DDX58 F539A/K858Q/K909Q (human, UniProt O95786); co-IP; Huh7 RIG-I knockdown; 24 h, not purified; baseline: RIG-I F539A, higher = greater reduction in binding): > 4 fold

T7 DNA polymerase (bacteriophage T7)
probability of functional interaction (gp2.5 (bacteriophage T7, UniProt P03696); Vmax versus tension, optical tweezers; 100 nM, model fit): 1

For quick reference, copied from above:
N-formyl-Met-Leu-Phe, N-formyl
pEC50 (FPR1 (Homo sapiens, UniProt P21462); inhibition of forskolin-stimulated cAMP, agonist; CHO-K1): 10.2 pEC50

B7 (TRAP 26-496)
koff (ITGAV/ITGB3 ectodomain heterodimer 31-992 (Homo sapiens); SPR): 0.00332 ± 2e-05 s⁻¹
